Assay results collected from several papers.
Every numbered part comes from another study and shows a few of its results, in no order.

Series 1
Target: Sal-like protein 4, full length isoform B (SALL4, Homo sapiens, UniProt Q9UJQ4-2, residues 1-616)
Method: universal PBM
Form: double-stranded DNA, one strand shown
Medium: in vitro
Concentration: not given
Notes: 8-mer, flanks averaged, mean of replicates
Direction: higher = stronger binding
| Sequence | E-score |
| --- | --- |
| ACAATATC | 0.345 |
| CCGCCTTA | -0.157 |
| GTATCAAC | -0.00305 |
| GTTCATCA | 0.0819 |
| ATTTTTAC | 0.386 |
| CGATCGAG | -0.221 |
| GCGAAACA | -0.0711 |
| CGCAAGAC | -0.0658 |
| AGATCTGA | -0.11 |
| CTCCGTGA | -0.147 |
| GTATACGA | 0.0791 |
| GAGCAATA | 0.207 |
| CGCTAGCC | -0.255 |
| ACAGTTCT | 0.0693 |
| ACGTCCGC | -0.131 |
| ACATTGGG | -0.0905 |

Series 2
Target: Ras GTPase-activating protein-binding protein 1, full length (G3BP1, Homo sapiens, UniProt Q13283)
UniProt Q13283, sequence (whole entry, looked up): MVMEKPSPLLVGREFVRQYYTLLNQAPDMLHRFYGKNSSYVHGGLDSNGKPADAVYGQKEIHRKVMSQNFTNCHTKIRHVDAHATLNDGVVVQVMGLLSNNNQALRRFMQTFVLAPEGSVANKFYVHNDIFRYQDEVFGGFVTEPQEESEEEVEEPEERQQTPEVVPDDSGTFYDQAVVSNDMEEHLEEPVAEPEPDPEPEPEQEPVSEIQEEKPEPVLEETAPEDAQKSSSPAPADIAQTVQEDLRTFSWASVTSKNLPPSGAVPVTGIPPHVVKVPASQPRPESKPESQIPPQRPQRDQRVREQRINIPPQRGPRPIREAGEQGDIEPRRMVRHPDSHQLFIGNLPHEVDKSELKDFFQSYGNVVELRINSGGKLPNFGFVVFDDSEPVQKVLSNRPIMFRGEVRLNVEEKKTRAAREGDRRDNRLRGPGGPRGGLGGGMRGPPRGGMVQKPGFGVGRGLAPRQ
Method: RNA Bind-n-Seq
Form: RNA
Medium: in vitro
Concentration: 200 nM
Notes: whole 134-nt RNA, ends assumed
Added: 150 mM KCl
Reference: input library
Direction: higher = stronger binding
Constant ends, left off below: GGGAGUUCUACAGUCCGACGAUC … UGGAAUUCUCGGGUGUCAAGG
| Sequence | log2 enrichment |
| --- | --- |
| UUCCUCAAGUCCUGUGCUACACAUCGUAUGUACCGAAUCGGUGGUGGUGGGAAAGUAUUAUGUUACGCCGUUCGGAUCUGCACUUCCAGC | -0.384 |
| ACCAUGCAGGUGGGCAUCUUUGGGAAGUGGGGCAAGGGGGGGAUAGGGAGGGGGGUAACACUUUGGGAACAGGUGGUCCCAGGCCGUUUC | 1.31 |
| AGUCCUGUGCUACACAUCGUAUGUACCGAAUCGGGAAAAAGGAAAAAGGGAAAAAGGGAAAGUAUUAUGUUACGCCGUUCGGAUCUGCAC | -0.786 |
| GCAGGAAGUAAAAACAAAUGGAAAUGCUUCGGAUAGUGGCAGGGGUGGUGGUUGCUAAGGAAAGGGUGGGAUGGGAGUGGGUAAAGAGUU | 0.789 |
| CUGUGCUACACAUCGUAUGUACCGAAUCGGGGUUUUUUUGGGGUUUGGGGAAAAAAAGGGGAAAGUAUUAUGUUACGCCGUUCGGAUCUG | -0.409 |
| CCUGUGCUACACAUCGUAUGUACCGAAUCGGAAAAAAAGGGAAAAAAAGGGGAAAAAAAGGAAAGUAUUAUGUUACGCCGUUCGGAUCUG | -0.801 |
| CAAGUCCUGUGCUACACAUCGUAUGUACCGAAUCGGGAAAAAGGGUGGGAAAGGGAAAGUAUUAUGUUACGCCGUUCGGAUCUGCACUUC | 0.649 |
| UCAAGUCCUGUGCUACACAUCGUAUGUACCGAAUCGGAAAGGAAAAAGGAAAGGAAAGUAUUAUGUUACGCCGUUCGGAUCUGCACUUCC | -1.08 |
| CACAGAGAACACGCACCCACACAGACACAGAGGGAAGGGGUUGGGAUGGGGACAGGGUGCACAGCAGGGCGGGGUAGGACCCCAGCCCCU | 1.63 |
| UCAAGUCCUGUGCUACACAUCGUAUGUACCGAAUCGGCCCGGGCCCGGCCCGGGAAAGUAUUAUGUUACGCCGUUCGGAUCUGCACUUCC | -1.01 |
| CAAGUCCUGUGCUACACAUCGUAUGUACCGAAUCGGAAAAAGGAAAGGUUUUUGGAAAGUAUUAUGUUACGCCGUUCGGAUCUGCACUUC | -1.31 |
| CCUGUGCUACACAUCGUAUGUACCGAAUCGGGGCCCCCCCGGCCCCCCCGGCCCCCCCGGGAAAGUAUUAUGUUACGCCGUUCGGAUCUG | -0.0394 |
| ACCAUGCAGGUGGGAAUCUUUGGGAAGUGGGGCAAGGGGGGGAUAGGGAGGGGGGUAACACUUUGGGAACAGGUGGUCCCAGGUCGUUUC | 1.07 |
| CAAGUCCUGUGCUACACAUCGUAUGUACCGAAUCGGGGCCCGGGCCCGGGGCCCGGAAAGUAUUAUGUUACGCCGUUCGGAUCUGCACUU | -0.8 |

Series 3
Organism: Saccharomyces cerevisiae
Observed: peptide binding
Method: yeast competitive growth sequencing
Form: peptide
Strain: cyclin-Cln2 fusion strain
Concentration: concentration not given
Notes: library 1
Direction: direction not given
| Sequence | binding score |
| --- | --- |
| GSALKKLFTSTGL | 0.408 |
| GSPAKKLFTSTGL | -0.183 |
| ASPLKKLFTSTGL | 0.289 |

Series 4
Target: RNA binding protein fox-1 homolog 2, RRM domain, GST-SBP tag (RBFOX2, Homo sapiens, UniProt O43251-10, residues 100-194)
Method: RNA Bind-n-Seq
Form: RNA
Medium: in vitro
Concentration: 365 nM
Notes: natural RNA segment, single round, ends assumed
Reference: no-protein control
Direction: higher = stronger binding
Constant ends, left off below: GGGAGUUCUACAGUCCGACGAUC … UGGAAUUCUCGGGUGCCAA
Construct (chain): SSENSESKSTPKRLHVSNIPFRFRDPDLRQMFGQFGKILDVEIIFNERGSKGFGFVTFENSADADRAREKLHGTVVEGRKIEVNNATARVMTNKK
| Sequence | RBNS enrichment (R) |
| --- | --- |
| GCAACUGGCAAGCAUCGGGUCUGAGGGACUACACAGGGCGCAGCACAAGGCGCUCAUGGGUUUCAGGGAGUGGGAGGGACUGUUUUUCUCCGUUGCUCUUCCUCCUUGUU | 0.654 |
| AACACCAGCUGCUGUCAAGCAAGCUUAUAUCAUGUAAAUUAUCUGAAUUAGGAGCCGUUUUGGUAAUUAUUUCAUAUAUCGCCGUUUAUUGAGAAAAGGUUGUAGGAAGC | 0.253 |
| CAACAUCAUACUUCACUUACUUGUUAAUUUACUUUUUACCCUUAUUCUAAGAGCAAGUUGAGUUGAACUGAAUCUUCCUUGUCUUAGUAACAAUGUAUAAAUAGUGGCUU | 0.576 |
| GGAGGCAAAUGGGUUGUACAAGGUUUUAUGGCUCCGCGGGGAAUUUAAUUUCCUUUCUGGGCACCUUUUGUCCCCUACUUUUAAAUUAACGGUGAAACGGCCCUAGGAGG | 0.54 |
| GGGAGCUUUGCCCUUAGGGCUGUCCUCUGACUUGCCCUCAAAGUUCACCAAUUCGGCAACUCCAUGGAGACGGUCGUGUCACUCUCAGCCCCUGUUGCUAUUAAGUCAUG | 0.342 |
| AUCUUUAAACAUGGGAAUAUGUUUUCAAGACAAUUUAUAGGACAUACUUAUGUAGUUGGUGAGGUCUUCUCAAAAGUAUCUACCUUUGUUAGAUAAUAACAAGUGAUUAA | 0.369 |
| UUAAGAGCAUUAAAUGAAUAUUAAUCACCUUUAAAGUCUUUUAGAAAAGGACUUGUAUUGGUUUUUGGCUGCAUAGAGGGGUUGAAUAAGUGUAUGUAUGUGUGUGCGUG | 1.4 |
| CCAAAGGUCAUCCCGGUCCACGGCAGGUCCCCUGUGUGGGGGUCUCGAAACAUGUGCAUGGCGUCUGUACGUGGCAGGUGGCAGGUGGUGUUGGCAAUGGUCCUGGAGGG | 1.93 |
| GCAAAGAGAUAGUCUAAAUGGCCUCUCAGCUUGGUAUGUGAAAAUGAGAUCACAUACUUUUUAAAUCCAAAUACAAAAGCAUAGUCUCUGCAAGAUUUUGUUCUUUGAAU | 0.312 |
| GUUCAGCACGUCCCCCACCCUCUUCCUGCCGCCUGCAAACCUCACGUGCAGCUUUUCUAUAUGCACGUGUUUUAUUAAUCUGAAUAUUCUCCUUCUGUCUCGGUUUGUGU | 1.43 |
| CUGUCUCUCUUUGAGAACAAUGAAGGCCACUCUCCACUGGGGCCAUCCCUCCCCACUCUGCCUCCUACCCCAUCUGUCCCACAUCCUAUUCCUCCCAGGAGCCCAUGCUC | 0.636 |
| GAGAAUUAAAACUGGGGAGCCAUUUACUAUGUCACCAUCACUGUUAACUGUUUCCCAGCAAUCUAAACUUUUUGAAGUUUCAGAGGUGUAUUUUUUUUUUGUAUAUAUGU | 0.478 |

Series 5
Target: Interferon regulatory factor 7, full length, phosphomimetic (IRF7, Homo sapiens, UniProt Q92985, residues 1-503, S101K/S471D/S472D/S475D/S476D/S477D/S483D/S484D/S487D)
Method: protein-binding microarray
Form: double-stranded DNA, one strand shown
Medium: in vitro
Concentration: 250 nM
Notes: 60-bp whole probe
Added: salmon DNA 0.4 mg/ml
Reference: random background probes
Direction: higher = stronger binding
Constant ends, left off below: GCCTAGCAC … GTCTTGATTCGCTTGACGCTGCTG
Residues (chain): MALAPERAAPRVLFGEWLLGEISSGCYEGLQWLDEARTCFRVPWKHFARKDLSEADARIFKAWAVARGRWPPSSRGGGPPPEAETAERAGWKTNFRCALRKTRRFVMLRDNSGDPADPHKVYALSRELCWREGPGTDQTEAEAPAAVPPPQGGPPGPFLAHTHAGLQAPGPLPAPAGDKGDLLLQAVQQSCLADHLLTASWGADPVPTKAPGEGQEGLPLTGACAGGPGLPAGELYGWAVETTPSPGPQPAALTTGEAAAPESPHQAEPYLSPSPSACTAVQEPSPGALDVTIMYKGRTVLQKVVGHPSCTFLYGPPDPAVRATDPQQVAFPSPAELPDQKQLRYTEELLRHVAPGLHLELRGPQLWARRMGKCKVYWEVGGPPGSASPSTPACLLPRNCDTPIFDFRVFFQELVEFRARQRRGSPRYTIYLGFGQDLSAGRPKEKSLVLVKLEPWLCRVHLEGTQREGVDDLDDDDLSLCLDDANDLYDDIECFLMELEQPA
| Sequence | log fluorescence [z-score] |
| --- | --- |
| TTAGATCCCAGTCTCGATTAGTGCTAG | 1.91 |
| TTTTTTTTCTTTAAAAGTGAGTGCTAG | 1.02 |
| GACGGTTTCGGGTATAGGGACGTGCTA | 6.4 |
| TTAGGTTCCGGTTTCGGTGAGTGCTAG | 7.47 |
| GGCGGTTTCGACTATCGGGACGTGCTA | 5.38 |
| GTATATACACTTATGACTTTGTGCTAG | 0.474 |
| TTAGATTTCGGGTTTCGATTGGTGCTA | 9.14 |
| TTAGGTTTCGGACTGGGTAAGTGCTAG | 4.34 |
| TTAGGTCTCGGACTGGGATAGTGCTAG | 0.227 |
| TGAGGTTTCGGACTGGGTTAGTGCTAG | 3.43 |
| CTTCCCCTCTAGGTTCTCTGAGTGCTA | 1.07 |
| TTAGATATCAGTTCCGATTAGTGCTAG | 1.12 |
| TCATCTGTCAGTTTTGAACTGTGCTAG | 0.352 |
| GATGGTATCGGTATCGGGACGTGCTAG | 1.5 |
| AACGGTATCGACACTGGGGACGTGCTA | 0.144 |
| GACGGACTAGGGACTGGGGACGTGCTA | 0.0264 |
